Measured values of several laboratories.
Compare with care: the assays were run in different laboratories. “And” joins repeats or separate records; there may be more than shown.
Target: Activin receptor type-1-like (ACVRL1, Homo sapiens, UniProt P37023)

SMILES	test	setting	how to read	measurement	result
Nc1ncc2c(n1)-c1c([nH]c3ccc(C4=CCOCC4)cc13)CCC2	binding, competition with immobilised ligand	1 µM		remaining binding	100%
COc1cc(Nc2nccc(-c3cnn4nc(OC)ccc34)n2)cc(C(F)(F)F)c1	binding, competition with immobilised ligand	1 µM		remaining binding	98%
CN1CC[C@@H](COc2cnc(C#N)cc2-c2ccn3nc(NC(=O)C4CC4)cc3c2)C1	enzyme activity, inhibitor	1 µM		inhibition	-13%
C=CC(=O)N1CCCC(n2c(=O)c3ncccc3n(Cc3ccc(Oc4ccccc4)cc3)c2=O)C1 (stereo not shown)	cell-free assay, competition with immobilised ligand	1 µM		remaining binding	100%
CNC(=O)C[C@H](Cc1ccc(C#N)cc1)NC(=O)c1cc(-c2ccc(CN[C@H](C)c3ccc(C)cc3)o2)ccc1Cl	enzyme activity, inhibitor	1 µM		activity vs control	122%
C=CC(=O)N1CCc2ccc(-n3c(=O)ccc4cnc5ccc(-c6cnn(C)c6)cc5c43)cc21	KINOMEscan	1 µM	relative to: DMSO control	remaining binding	100%
C=CC(=O)N1Cc2nc(-c3cc(-c4cc(Cl)cnc4Cl)c(F)cc3F)n(-c3ccncn3)c2C1	cell-free assay	1 µM		inhibition	-10.1%
COc1cc(Nc2nc(C)cc(-c3cnn4nc(OC)ccc34)n2)cc(C(F)(F)F)c1	inhibitor	1 µM	relative to: control	remaining activity	89%
Nc1ncc(-c2cc(-c3cnn(CC(F)(F)F)c3)ncc2F)nc1C(=O)NC1CNCC(F)C1 (stereo not shown)	enzyme activity	1 µM	relative to: DMSO control	remaining activity	109%
COCC12C(=O)NC3C4(C(OC)CC1O)C1CC5(O)C(OC)C(O)C(OC(C)=O)(C1C5OC(=O)c1ccccc1)C3(O)C(OC)C24 (stereo not shown)	kinase activity, inhibitor, ProQinase kinase profiling	25 µM	relative to: control	remaining activity	97% and 101%
NC(=O)[C@@H](O)C[C@H]1CCc2sc3ncnc(O[C@H]4CC[C@H](N5CCOCC5)CC4)c3c21	enzyme activity, inhibitor	10 µM		inhibition	4%
Cc1nc2c(F)cc(-c3nc(Nc4ccc(CNC(=O)CCCCCCC(=O)NO)cc4)ncc3F)cc2n1C(C)C	enzyme activity, inhibitor	1 µM		inhibition	61%
CNC(=O)C1CCN(c2cc(C)c(F)cc2NC(=O)c2ccc(-c3cc(O)ccc3C)c(C)c2)CC1	binding, competition with immobilised ligand	1 µM		remaining binding	99%
NC(=O)C[C@H]1CCc2sc3ncnc(O[C@H]4CC[C@H](N5CCOCC5)CC4)c3c21	enzyme activity, inhibitor	10 µM		inhibition	-2%
Cc1cnc2nc1Nc1cccc(c1)COC/C=C/COCc1cc(ccc1OCCN1CCOCC1)N2	binding	0.1 µM		remaining binding	100%
CCN1CCN(Cc2ccc(C(=O)Nc3ccc(C)c(NCc4cnc5[nH]ccc5c4OC)c3)cc2C(F)(F)F)CC1	binding, competition with immobilised ligand	1 µM		remaining binding	100%
Cc1ccc(-c2c(/C=C(\C#N)C(=O)NC(C)C)n(CCCO)c3ncnc(N)c23)cc1	enzyme activity, inhibitor	1 µM		remaining activity	70%
CC(C)=CC1OC(C)(C)C2C=C3C(=O)C(Cl)=CC(O)C3C3C(O)C4OC4C(=O)C132 (stereo not shown)	cell-free assay, competition with immobilised ligand	10 µM		remaining binding	100%
COc1c(Cl)cccc1Nc1c(-c2ccncc2C#C[C@@]2(C)CCCN2C(=O)/C=C/CN(C)C)[nH]c2c1C(=O)NCC2	binding, competition with immobilised ligand	3 µM		remaining binding	96%
CNC1C[S+]2CC[S+]3CC[S+](C1)[Ru-4]321([N]=C=S)[n]2c3ccc(OC)cc3c3c4c(c5cc(F)c[n+]1c5c32)C(=O)NC4=O (stereo not shown)	KinomeScan	0.1 µM	relative to: untreated	remaining binding	99%
O=C(Cc1ccc(OCc2ccccc2)cc1)NC1(C(=O)O)CCN(C(=O)c2ccc(-c3cccc(Cl)c3)cc2)CC1	enzyme activity, inhibitor	10 µM		activity vs control	101%
CN1CCN(Cc2ccc(-c3ccc(CO[C@H]4CCC[C@@H]4NC(=O)c4cc(-c5cnn(C)c5)cnc4N)cc3)cc2)CC1	enzyme activity, inhibitor	0.1 µM		inhibition	7%

For quick reference, copied from above:
SMILES	test	setting	how to read	measurement	result
CC(C)=CC1OC(C)(C)C2C=C3C(=O)C(Cl)=CC(O)C3C3C(O)C4OC4C(=O)C132 (stereo not shown)	cell-free assay, competition with immobilised ligand	10 µM		remaining binding	100%
COc1c(Cl)cccc1Nc1c(-c2ccncc2C#C[C@@]2(C)CCCN2C(=O)/C=C/CN(C)C)[nH]c2c1C(=O)NCC2	binding, competition with immobilised ligand	3 µM		remaining binding	96%
COCC12C(=O)NC3C4(C(OC)CC1O)C1CC5(O)C(OC)C(O)C(OC(C)=O)(C1C5OC(=O)c1ccccc1)C3(O)C(OC)C24 (stereo not shown)	kinase activity, inhibitor, ProQinase kinase profiling	25 µM	relative to: control	remaining activity	97% and 101%
Cc1ccc(-c2c(/C=C(\C#N)C(=O)NC(C)C)n(CCCO)c3ncnc(N)c23)cc1	enzyme activity, inhibitor	1 µM		remaining activity	70%
